Results collected from several papers.
Each line is one published result; not all experiments were run side by side. “And” joins repeats or separate records; there may be more than shown.
Sequence of UniProt P05177 (whole entry, looked up): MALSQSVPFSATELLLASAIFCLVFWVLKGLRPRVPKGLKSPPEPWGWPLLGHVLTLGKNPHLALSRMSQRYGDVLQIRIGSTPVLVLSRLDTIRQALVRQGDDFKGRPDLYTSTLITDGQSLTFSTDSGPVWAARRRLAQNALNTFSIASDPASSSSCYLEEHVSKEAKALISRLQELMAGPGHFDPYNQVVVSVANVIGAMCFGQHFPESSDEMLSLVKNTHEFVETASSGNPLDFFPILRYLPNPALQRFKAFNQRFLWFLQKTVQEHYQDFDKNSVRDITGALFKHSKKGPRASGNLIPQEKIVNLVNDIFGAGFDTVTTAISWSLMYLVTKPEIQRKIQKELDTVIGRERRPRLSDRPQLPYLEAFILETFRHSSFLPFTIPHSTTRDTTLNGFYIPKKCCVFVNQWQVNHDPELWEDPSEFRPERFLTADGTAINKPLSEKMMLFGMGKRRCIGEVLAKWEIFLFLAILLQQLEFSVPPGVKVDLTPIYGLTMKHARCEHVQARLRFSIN
Sequence of UniProt P05181 (whole entry, looked up): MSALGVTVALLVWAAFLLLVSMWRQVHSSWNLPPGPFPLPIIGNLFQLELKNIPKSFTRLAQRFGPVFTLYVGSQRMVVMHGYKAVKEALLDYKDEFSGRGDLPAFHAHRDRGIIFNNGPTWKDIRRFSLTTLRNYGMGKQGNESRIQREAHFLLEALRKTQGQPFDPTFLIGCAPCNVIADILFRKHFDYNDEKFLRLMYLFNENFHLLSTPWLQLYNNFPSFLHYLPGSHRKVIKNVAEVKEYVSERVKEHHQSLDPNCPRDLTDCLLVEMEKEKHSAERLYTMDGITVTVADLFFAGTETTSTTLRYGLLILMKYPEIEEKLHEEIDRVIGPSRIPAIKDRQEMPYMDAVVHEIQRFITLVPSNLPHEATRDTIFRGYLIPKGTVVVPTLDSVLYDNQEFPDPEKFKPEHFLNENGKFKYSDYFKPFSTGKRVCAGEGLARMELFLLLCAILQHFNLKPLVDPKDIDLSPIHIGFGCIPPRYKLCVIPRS

`CCCC[C@H](NC(C)=O)C(=O)N[C@@H](CO)C(=O)N[C@H](C(=O)N1CCC[C@H]1C(=O)N[C@]1(C)CCCCCCC=CCCC[C@@](C)(C(=O)N[C@@H](Cc2ccccc2)C(=O)N[C@@H](CCCCN)C(=O)N[C@@H](CCCNC(=N)N)C(=O)N[C@@H](CC(C)C)C(=O)N[C@@H](CCC(N)=O)C(N)=O)NC(=O)[C@H](CCCNC(=N)N)NC(=O)[C@H](CCCC)NC(=O)[C@H](CC(C)C)NC(=O)[C@H](CCCNC(=N)N)NC(=O)[C@H](CCCNC(=N)N)NC(=O)[C@H](CCCNC(=N)N)NC1=O)[C@@H](C)O` gave a remaining peptide of 50.9% and 47.6% (proteinase K; LC-MS; 25 µM, 430.6 min, pH 7.4).
Under “revertant fold increase”, `O=C1C2CC3CC1CC(C(=O)N1CCN(c4ccc([N+](=O)[O-])c5ncccc45)CC1)(C3)C2` is recorded as 0.8 (Salmonella typhimurium; Ames test; TA1535; 0.05 µg/well, with S9; baseline: vehicle).
`CCN(CC)CC#CCNc1ccnc2cc(Cl)ccc12`: “revertants per well” 12 (Salmonella typhimurium; mini-Ames test; TA97a; 62.5 µg/well, without S9).
`N#C[C@@H]1CC(F)(F)CN1C(=O)CNC(=O)c1ccnc2c(NC(=O)[C@@H](N)CCCCNC(=O)CCOCCOCCOCCOCCOCCOCCNC(=O)CN3CCN(CC(=O)[O-])CCN(CC(=O)[O-])CCN(CC(=O)[O-])CC3)cccc12.[177Lu+3]` has a tracer uptake of 0.04 %ID/g (U-87 MG tumour model; host not given, muscle; 24 h, tumour-bearing).
`C[C@H](NP(=O)(O)OC[C@H]1O[C@@](C#N)(c2ccc3c(N)ncnn23)[C@H](O)[C@@H]1O)C(=O)O` has a CC50 of over 100 µM (primary human hepatocytes; item: ATP; 4 h).
`CC(C)OCCOCc1ccc(OCC(O)CN(N=O)C(C)C)cc1` (stereo not shown): “revertant fold increase” 0.6 fold (Salmonella typhimurium; Ames test; TA1535; 5000 µg/plate, without metabolic activation; baseline: solvent control).
`CCCCC(=O)NC(c1ccc(N(CC)CC)cc1)c1ccc2cccnc2c1O` (stereo not shown) has a translation activity of 114% and 111% (Trypanosoma cruzi; reporter mRNA translation, inhibitor, item: Renilla luciferase mRNA; cell-free extract; concentration not given, test 1; baseline: positive over negative control).
With `COc1cccc(OC)c1-c1cc(C(=O)NC2(C(=O)O)C3CC4CC(C3)CC2C4)nn1-c1ccc(C(=O)NCCNC(=O)[C@H](CCCCNC(=O)[C@H](CC(C)C)NC(=O)C2OC2C(=O)O)NC(=O)CN2CCN(CC(=O)[O-])CCN(CC(=O)[O-])CCN(CC(=O)[O-])CC2)cc1C(C)C.[177Lu+3]` (mixture of isomers) the tracer uptake was 0.08 %ID/g (HT-29 tumour model; host not given, stomach; 72 h, tumour-bearing).
With `CC(C)=CCCC(C)CN(C)CCc1ccccn1` (stereo not shown) the translation activity was 112% (Trypanosoma cruzi; reporter mRNA translation, inhibitor, item: Renilla luciferase mRNA; cell-free extract; concentration not given, test 3; baseline: positive over negative control).
The tracer uptake of `COc1cccc(OC)c1-c1cc(C(=O)NC2(C(=O)O)C3CC4CC(C3)CC2C4)nn1-c1ccc(C(=O)N(C)CCOCCN(C)C(=O)[C@H](CCCCNC(=O)[C@H](CC(C)C)NC(=O)C2OC2C(=O)O)NC(=O)CN2CCN(CC(=O)[O-])CCN(CC(=O)[O-])CCN(CC(=O)[O-])CC2)cc1C(C)C.[177Lu+3]` (mixture of isomers) is reported as 1.1 %ID/g (HT-29 tumour model; host not given, stomach; 4 h, tumour-bearing).
The viability of `CN1CCCNC(=O)c2cccc(c2)C(=O)NCCCN(C)CCCNc2cccc3c2C(=O)c2cccc(c2C3=O)NCCC1` is reported as 23.2% (Ca9-22; CCK-8; 1.5 µM, 48 h; baseline: untreated).
`N#C[C@@H]1CC(F)(F)CN1C(=O)CNC(=O)c1ccnc2c(NC(=O)[C@H](CCCCNC(=O)CCOCCOCCOCCOCCOCCOCCNC(=O)CN3CCN(CC(=O)[O-])CCN(CC(=O)[O-])CCN(CC(=O)[O-])CC3)NC(=O)CCCc3ccc(I)cc3)cccc12.[177Lu+3]` gave a tracer uptake of 2.37 %ID/g (U-87 MG tumour model; host not given, muscle; 1 h, tumour-bearing).
For `O=C1NC2(CC2)COc2ncc(F)cc2[C@H]2COCCN2c2ccn3ncc1c3n2`, the polyploid cells was 1% (CHL; chromosomal aberration test; 20 µg/mL, 24 h, without S9).
The tissue uptake of `COc1ccc2c(c1)C(C)(C)C(/C=C/C1=C(Oc3ccc(C(=O)NCCCCOc4cc(CN(Cc5ccccn5)Cc5ccccn5)cc(CN(Cc5ccccn5)Cc5ccccn5)c4)cc3)C(=C/C=C3/N(CCCCS(=O)(=O)[O-])c4ccc(OC)cc4C3(C)C)CCC1)=[N+]2CCCCS(=O)(=O)[O-].O=[N+]([O-])[O-].O=[N+]([O-])[O-].[99Tc+].[C-]#[O+].[C-]#[O+].[C-]#[O+].[Zn+2]` is reported as 1.59 %ID/g (Staphylococcus aureus; BALB/c mice, bacterial myositis, urine and bladder; 12 h).
`CNC(=O)C1CCCN(C(=O)C2CC3CCC2N3C(=O)[C@@H]2C[C@@H](O)CN2C(=O)NCc2cccc(Cl)c2F)C1` (mixture of isomers) gave a remaining activity of 99.2% and 98.3% (Cytochrome P450 1A2 (CYP1A2, Homo sapiens, UniProt P05177); preincubation without NADPH; human; 50 µM; baseline: negative control).
Under “contribution to metabolism”, `C=CC(=O)Nc1cc(Nc2nccc(-c3cn(C)c4ccccc34)n2)c(OCC(F)(F)F)nc1N(C)CCN(C)C` is recorded as 2.25% (Cytochrome P450 2E1 (CYP2E1, Homo sapiens, UniProt P05181); substrate, substrate depletion; 3 µM, 60 min, normalised to liver abundance).

For quick reference, copied from above:
Under “revertant fold increase”, `O=C1C2CC3CC1CC(C(=O)N1CCN(c4ccc([N+](=O)[O-])c5ncccc45)CC1)(C3)C2` is recorded as 0.8 (Salmonella typhimurium; Ames test; TA1535; 0.05 µg/well, with S9; baseline: vehicle).
